# Experimental data collected from several papers.
# Parts stem from different laboratories: compare values within a part only. Changes are numbered by the printed parent chain.

# Sample 1 — technique: protein-binding microarray; molecule type: double-stranded DNA, one strand shown; sample: in vitro; tested at: not given; direction: higher = stronger binding
# Target: Transcriptional repressor CTCF (CTCF, Homo sapiens, UniProt P49711, residues 1-727, full length assumed)
# Chain of UniProt P49711 (whole entry, looked up): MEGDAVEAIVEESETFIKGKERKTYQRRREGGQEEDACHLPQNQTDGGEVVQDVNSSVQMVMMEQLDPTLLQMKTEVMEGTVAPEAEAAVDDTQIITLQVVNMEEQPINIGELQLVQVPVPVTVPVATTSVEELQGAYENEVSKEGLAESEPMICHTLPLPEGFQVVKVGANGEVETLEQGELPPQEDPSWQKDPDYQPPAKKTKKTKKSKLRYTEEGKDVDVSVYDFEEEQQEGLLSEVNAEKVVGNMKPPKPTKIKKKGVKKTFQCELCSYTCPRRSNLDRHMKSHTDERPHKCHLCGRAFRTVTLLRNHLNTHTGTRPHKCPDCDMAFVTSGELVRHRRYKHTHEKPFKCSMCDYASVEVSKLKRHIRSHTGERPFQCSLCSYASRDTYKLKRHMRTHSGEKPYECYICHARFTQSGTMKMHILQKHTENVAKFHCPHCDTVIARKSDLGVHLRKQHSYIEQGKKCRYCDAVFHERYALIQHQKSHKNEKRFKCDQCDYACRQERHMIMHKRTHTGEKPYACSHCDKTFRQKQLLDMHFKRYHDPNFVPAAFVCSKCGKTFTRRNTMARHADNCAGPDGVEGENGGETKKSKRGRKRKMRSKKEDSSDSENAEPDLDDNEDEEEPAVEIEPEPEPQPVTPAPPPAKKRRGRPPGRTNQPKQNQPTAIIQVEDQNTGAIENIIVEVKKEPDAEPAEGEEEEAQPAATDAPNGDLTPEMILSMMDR
# Notes: k-mer, scored over probes, only values ≥0.25
Sequence,E-score
CCTTATAA,0.269
AACATAAT,0.369
AATTATGC,0.292
AAACATAT,0.297
ATTACCAC,0.315
AAAAAAAC,0.291
AGTATAAT,0.299
AACGCGCA,0.31
TTACCAAA,0.253
ATATTCTC,0.272
ATAAAGAA,0.252
AGTACGTA,0.267
CATTATAA,0.34

# Sample 2 — technique: protein-binding microarray; molecule type: double-stranded DNA, one strand shown; sample: in vitro; tested at: 250 nM; notes: 60-bp whole probe; together with: salmon DNA 0.4 mg/ml; baseline: random background probes; direction: higher = stronger binding; shared flanks, not repeated: GCCTAGCAC … GTCTTGATTCGCTTGACGCTGCTG
# Target: Interferon regulatory factor 7, full length, phosphomimetic (IRF7, Homo sapiens, UniProt Q92985, residues 1-503, S101K/S471D/S472D/S475D/S476D/S477D/S483D/S484D/S487D)
# Chain of UniProt Q92985 (whole entry, unmodified, looked up): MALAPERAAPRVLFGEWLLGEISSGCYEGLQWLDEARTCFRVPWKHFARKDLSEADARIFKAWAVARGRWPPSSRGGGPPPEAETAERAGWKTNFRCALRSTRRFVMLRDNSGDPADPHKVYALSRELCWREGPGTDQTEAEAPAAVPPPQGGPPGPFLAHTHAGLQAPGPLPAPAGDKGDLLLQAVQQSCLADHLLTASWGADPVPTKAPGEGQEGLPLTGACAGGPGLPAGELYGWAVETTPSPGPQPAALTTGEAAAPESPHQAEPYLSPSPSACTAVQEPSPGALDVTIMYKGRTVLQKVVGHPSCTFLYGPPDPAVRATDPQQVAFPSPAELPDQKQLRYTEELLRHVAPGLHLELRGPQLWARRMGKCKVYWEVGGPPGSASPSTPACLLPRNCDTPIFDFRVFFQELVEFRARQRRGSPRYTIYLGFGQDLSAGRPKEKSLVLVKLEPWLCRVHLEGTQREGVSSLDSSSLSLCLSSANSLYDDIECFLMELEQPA
Sequence,log fluorescence [z-score]
TTAGAACCGGGGACTGGATTAGTGCTA,-0.232
GACGGTTTCGAGACTGGGGACGTGCTA,4.72
TTAGGTTCTGGTTTCGGTTAGTGCTAG,9.93
GACGGTATCCTTCTCCTGCCGTGCTAG,-0.0607
TCATTTCTCCCAAGTCTTACTGTGCTA,1.82
CTTGCTTTATGTGTAGGTCTGTGCTAG,-0.0811
TCAATTTTAGTTTTCATACTGTGCTAG,0.959
TGGTCTCTAGTTAGAGAACTGTGCTAG,2.97
GACGGTATCCATCTCCTGACGTGCTAG,-0.0769
CTAGATATCAGTATCGATTAGTGCTAG,1.59
TCAAATTTGCTTTAGTCACTGTGCTAG,0.143
TTAGGTTTCCTTTCCCTATAGTGCTAG,5.2
TCCTGTTTGATAATTTTTTTGTGCTAG,0.614
TTAGGCCTCCTTATCCTTTAGTGCTAG,0.23
GACGGCCTGGGTATCGGGACGTGCTAG,-0.656

# Sample 3 — technique: RNA Bind-n-Seq; molecule type: RNA; sample: in vitro; tested at: 365 nM; baseline: no-protein control; direction: higher = stronger binding
# Target: RNA binding protein fox-1 homolog 2, RRM domain, GST-SBP tag (RBFOX2, Homo sapiens, UniProt O43251-10, residues 100-194)
# Notes: natural RNA segment, single round, ends assumed
# Shared flanks, not repeated: GGGAGUUCUACAGUCCGACGAUC … UGGAAUUCUCGGGUGCCAA
# Target sequence (chain): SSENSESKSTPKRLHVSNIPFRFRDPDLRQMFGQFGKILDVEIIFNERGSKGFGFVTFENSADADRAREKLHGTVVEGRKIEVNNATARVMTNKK
Sequence,RBNS enrichment (R)
CGUCCUCUGCUCUCUGCUAUGUGGUUAUUCUAAACGUCACUGGCCAGGGGACUCGCCUACUGAGAGCUGUCAUUGACUUACUGUCUAAAGCCCUGUGCUCCGUGACUCCC,0.248
UGUAUUUAUCCAUCAUUACUGAAGUAUUUGUUAACUAAGCUAGCAACAAAAUAAUUUCUGUACUUUGGCAAUGUUACUCUAGUGUCUUCUCCCUAAUUCUUUUGUUUCUU,0.601
UGGGGUCUCCUGCUUCAAGCAGGCUUCUCCCACUCCAAUCCCCUGCCCCAUCUCCCCAUAGCCUGAGUGAUGAGGUGGCCCCAGAGCUGAUCUCUGCUGCUGUGUCUUUA,0.472
UUCAUUUUGAUGUUCGGGUUUUUGUGUUAAGUUAAUCUGUACAUUCUGUUUGCCAUUGUUACUUGUACUAUACAUCUGUAUAUAGUGUACGGCAAAAGAGUAUUAAUCCA,0.473
AGUGCCACAAGCAUGACCUUGGUGGACACAGGAAGCCACAGGAAAAUUCUUGACAGUCUGUGUCCCAUCAGUCACUGCAUUUUUCUUUUUCCAAAUACAUCCUGUUGGAU,1.93
UUUCUCCCCUCUUUGUGUGGCCCCAGCCAGGGCGGUGGGCAGUCCUGGUGUAGAGCACAAGCCUCUCCACCCUAGAGAAAUGCCUCUGUACCACGGCUACCAUGUGGAAC,0.492
UUGUAAGGGGGUGGGUGGGACAGUAAAUUUGUAUUGUCUCGAUGUACAGUUUAACGGGGAUAGAGGGGGAAUAAUGUCCAUACCAUUGUGUGUGGAGGAUUUACAGCUAA,0.566
UUAAUGCUUGUCUAUAACAUUGGAGCCAUCACAAGAAUGUUCAUUUGGAAUGAAGGCUGCAGGCACUGGUUGCAGACGUCUUUAUAGGCAGUCACCAUGUUGUCAAACCU,0.192
CUGUAUGUGGUGUCUAACAUCUACAAGGUGGGGGCUGGAGAAGUGGCUUGGUGCUCAAAGGCACUUGCUGCUCUUGCAGAAGGCCAAAAGAUGUGAUUUAGUUCCUAGCC,0.312
CAUGGCCCCACUUGUAUCCAGAAGUUCCCAGGGGUGAUUGUGAUGGUGGUUGGGACUGGAGGUUGUAUAAGGUGUUCUUGGAAGGAAGGGGCAGGAGUUGGAAUUAGUUG,4.08
CCCUUCUGAGCCUGUUGUACUCACUGAUCUCUUUAAAAACAAAAAAUAGCUCUUGUAAAAGGUCACAAUAACUCUAUGCACCUGAUACUGCAGUGGUUCCUAGGCCAUUC,0.423
AAAGCAAUUUUUUUCUUUUCGAUUUAAUGAAGUAUUGCUAGCUGAAGCCAGUUUGACAUAGAGAGAUGUCAGAUUGAUUUGAAAGGUGUGCAGCCUGAUUUAAAACCAAA,0.716

# Sample 4 — target: CCNF, cyclin fold, Cln2 fusion (human); technique: yeast growth competition, sequencing; sample: yeast; notes: strong parent motif; baseline: not given; direction: higher = stronger binding
# Starting sequence: PPP1R3F docking peptide (human); VAPRRVLFADEAL
Variant,normalised enrichment score
VAPRRVLFADAAL [E11A],5.93
VAPRRVLFAAEAL [D10A],6
VAARRVLFADEAL [P3A],8.48
VAPRRVLLADEAL [F8L],0.792
VAPRAVAFADEAL [R5A L7A],-0.461
VAPARVLFADEAL [R4A],4.05
VAPRKVLLADEAL [R5K F8L],0.342
AAPRRVLFADEAL [V1A],7.25

# Sample 5 — technique: protein-binding microarray; molecule type: double-stranded DNA, one strand shown; sample: in vitro; tested at: 0.8 µM; notes: whole 60-bp probe, no competitor; direction: higher = stronger binding; shared flanks, not repeated: … GTCTTGATTCGCTTGACGCTGCTG
# Target: Centromere-binding protein 1, full length, N-terminal tag (CBF1, Saccharomyces cerevisiae, UniProt P17106, residues 1-351)
# Chain of UniProt P17106 (whole entry, looked up): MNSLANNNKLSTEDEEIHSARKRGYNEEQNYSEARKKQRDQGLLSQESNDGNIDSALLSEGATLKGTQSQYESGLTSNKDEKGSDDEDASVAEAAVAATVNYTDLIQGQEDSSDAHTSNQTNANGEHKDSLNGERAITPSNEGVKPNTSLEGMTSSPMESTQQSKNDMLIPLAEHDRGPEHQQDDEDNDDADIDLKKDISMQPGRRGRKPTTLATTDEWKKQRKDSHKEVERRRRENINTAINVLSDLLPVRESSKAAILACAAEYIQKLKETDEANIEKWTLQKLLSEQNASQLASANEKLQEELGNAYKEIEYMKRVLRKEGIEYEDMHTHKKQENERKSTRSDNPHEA
Sequence,fluorescence intensity [a.u.]
GAATTCTGGGGTTACCACGATTACCAGCGGAGTTAG,479
GAATCTGCCTATGCCTTCGTGGGGCATCTCTTATAG,496
GAATTTCCGTACTGTGACACTTGACCATCATAATAG,679
CCTAACTACTATACGCACGTGACATAGCTTCGTACA,17000
GAAACTGCTGTATCTGATGCCGTGAACGAGACATAG,582
GAAAAGGGTAGGAGTCACATCAGGTGTTTGTTGTAG,790
CTACCGTAACGATTTAATATCACGTGGATAGTGTTC,10900
GAATGTTTGCGGGCTCACCTGGATGAAGCTAAGTAG,554
GAATAACTCACTCATCACGCTGTTTCCGCTGAATAG,588
GAATTAGATTTTCAGCACGTGATTTTGCATCTTTAG,11500
CTAAGTGTAAGACACCACCTCTTAATTACTGGTTTC,470
CTATTAGTAGTATACTATCACATGTGGTGTAAATTC,2670
GAACTGTACAGTCGTCACATCAGACGAATACAATAG,555
CTACGCTATTCGGATGACGTGATGACGCTTCGGTTC,653
CTAAATTCATGGCGCCATCACCCGCAGGGAATATTC,485
GAATCCTGCACACTGCACGTTGAGACCTGAATCTAG,646

# Sample 6 — technique: protein binding microarray; molecule type: double-stranded DNA, one strand shown; sample: in vitro; tested at: not given; baseline: not given; direction: higher = stronger binding
# Target: Histone acetyltransferase KAT6A, both winged helices, GST fusion (KAT6A, Homo sapiens, UniProt Q92794, residues 1-181)
# Notes: 8-mer, flanks averaged, mean of 2 arrays, mostly near background
# Target sequence (chain): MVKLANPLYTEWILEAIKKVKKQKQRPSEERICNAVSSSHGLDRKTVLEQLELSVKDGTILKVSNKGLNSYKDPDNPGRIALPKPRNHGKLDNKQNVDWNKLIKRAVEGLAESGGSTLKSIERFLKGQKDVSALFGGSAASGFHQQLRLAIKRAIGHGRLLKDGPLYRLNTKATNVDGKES
Sequence,E-score
GACTTGTA,-0.0418
GACTTAAC,-0.0497
TAGGTGAA,-0.121
CAACTAAA,-0.109
CGAAGTGC,0.0842
ACCTCCAT,-0.0994
AAGGTAGA,-0.193
CCAAGGAC,-0.0499
TGGGTCAA,-0.164
AACTACAC,-0.126
ATCCGGAG,0.189
ATTATAGG,-0.0429
ATAGAGCC,0.0111
CTCGACCA,-0.18
ATACCGCC,0.211
AAGGGGTA,-0.287
CTGCTACA,-0.0165
CTGGCAGA,-0.192
AGGGCAAG,-0.192
CTCTCGTA,-0.156
CCACTACG,-0.0679
AGCTGGAG,-0.116
ACCCGGAT,-0.0315
GATTGCTA,-0.00393
CGTCCCCA,0.0192

# Mixed results
Molecule,target,test,system,setting,how to read,quantity,result
"PhoQ, residues 284 288 289 292 302 303 GTAMQF","PhoP, residues 12 14 15 18 19 TTLRV (Escherichia coli, UniProt P23836)","Sort-seq, refers to: YFP reporter",E. coli,"PhoQ-PhoP variant library, together with: 10 µM Mg2+","baseline: high Mg2+ state, higher = stronger signaling",fold induction,6.52
